Results from different studies.
Every numbered part comes from another study and shows a few of its results, in no order.

Block 1 — technique: protein-binding microarray; form: double-stranded DNA, one strand shown; sample: in vitro; tested at: not given; reading: higher = stronger binding
Target: Transcriptional repressor CTCF (CTCF, Homo sapiens, UniProt P49711, residues 1-727, full length assumed)
Setting: k-mer, scored over probes, only values ≥0.25
Target sequence (chain): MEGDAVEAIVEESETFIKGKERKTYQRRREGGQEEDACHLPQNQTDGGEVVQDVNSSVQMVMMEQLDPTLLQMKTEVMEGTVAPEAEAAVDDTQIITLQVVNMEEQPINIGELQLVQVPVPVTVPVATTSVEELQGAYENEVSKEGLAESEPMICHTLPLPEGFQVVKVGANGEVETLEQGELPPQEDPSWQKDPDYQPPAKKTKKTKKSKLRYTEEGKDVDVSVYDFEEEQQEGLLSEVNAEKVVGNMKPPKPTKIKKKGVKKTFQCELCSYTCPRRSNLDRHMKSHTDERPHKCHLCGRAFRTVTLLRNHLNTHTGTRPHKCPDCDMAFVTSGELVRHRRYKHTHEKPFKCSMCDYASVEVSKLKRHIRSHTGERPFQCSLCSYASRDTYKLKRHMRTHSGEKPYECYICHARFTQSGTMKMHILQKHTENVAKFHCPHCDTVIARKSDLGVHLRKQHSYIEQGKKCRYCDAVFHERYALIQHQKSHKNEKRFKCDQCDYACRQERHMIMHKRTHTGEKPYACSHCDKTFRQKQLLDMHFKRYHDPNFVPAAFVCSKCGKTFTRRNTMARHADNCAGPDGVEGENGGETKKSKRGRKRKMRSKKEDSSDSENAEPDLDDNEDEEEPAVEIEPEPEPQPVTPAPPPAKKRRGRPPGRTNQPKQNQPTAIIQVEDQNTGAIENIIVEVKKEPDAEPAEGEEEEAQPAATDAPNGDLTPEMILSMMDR
`CGCGTAAA` has an E-score of 0.278.
For `CAATTTTA`, the E-score was 0.274.
For `AGGCGCAT`, the E-score was 0.285.
For `ACCACATG`, the E-score was 0.318.
For `ATTATCAC`, the E-score was 0.316.
`AAATTATA` gave an E-score of 0.314.

Block 2 — technique: protein-binding microarray; form: double-stranded DNA, one strand shown; sample: in vitro; tested at: 940 nM top; setting: 60-bp whole probe; together with: salmon DNA 0.4 mg/ml; reference: random background probes; reading: higher = stronger binding
Target: Interferon regulatory factor 5, full length, phosphomimetic (IRF5, Homo sapiens, UniProt Q13568-2, residues 1-514, S451D/S453D/S456D/S462D)
Under “fitted relative affinity”, `GCCTAGCACTCACTTCTGGGCTGTTTGACTGTGCTAGTCTTGATTCGCTTGACGCTGCTG` is recorded as 0.57 z-score.
`GCCTAGCACGACGGTATCGGTCTCCGGACGTGCTAGGTCTTGATTCGCTTGACGCTGCTG` — result for “fitted relative affinity”: 9.48 z-score.
`GCCTAGCACGACAAACTGGGGACTGGAGACGTGCTAGTCTTGATTCGCTTGACGCTGCTG` — result for “fitted relative affinity”: 0.0199 z-score.
`GCCTAGCACGTCAAACTCACTCATGGCTTTGTGCTAGTCTTGATTCGCTTGACGCTGCTG`: “fitted relative affinity” 0.00296 z-score.

Block 3 — technique: protein binding microarray; form: double-stranded DNA, one strand shown; sample: in vitro; tested at: not given; reference: not given; reading: higher = stronger binding
Target: Histone acetyltransferase KAT6A, winged helix 2, GST fusion (KAT6A, Homo sapiens, UniProt Q92794, residues 85-181)
Setting: 8-mer, flanks averaged, mean of 2 arrays, mostly near background
Residues (chain): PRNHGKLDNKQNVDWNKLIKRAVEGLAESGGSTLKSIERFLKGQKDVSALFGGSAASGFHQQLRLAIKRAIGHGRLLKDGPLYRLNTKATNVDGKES
The E-score of `CGATATCC` is reported as 0.0312.
With `GTAGGCAC` the E-score was -0.0514.
The E-score of `GGCAGACA` is reported as 0.0533.
`TCCTCACA` gave an E-score of 0.0282.
With `AAGTCCTC` the E-score was -0.15.
With `TCTGCTCA` the E-score was 0.0906.

Single results of other studies
The fold induction of `PhoQ, residues 284 288 289 292 302 303 SSTMSV` is reported as 2.61 (PhoP, residues 12 14 15 18 19 VHSCL (Escherichia coli, UniProt P23836); Sort-seq, refers to: YFP reporter; E. coli; PhoQ-PhoP variant library, together with: 10 µM Mg2+; reference: high Mg2+ state, higher = stronger signaling).

Excerpt of the above (block 1):
`CGCGTAAA` has an E-score of 0.278.
